{"data": "Assay results pooled from the literature", "note": "Numbers after ± are the reported error."}
{"SMILES": "Cc1ccc(Sc2ccccc2N2CCNCC2)c(C)c1", "test": "refers to: Somnolence", "test system": "healthy adult men", "setting": "oral, 5 mg single dose, 10 day", "quantity": "participants with TEAE", "result": "0%"}
{"SMILES": "CNS(=O)(=O)Cc1ccc2[nH]cc(CCN(C)C)c2c1", "test system": "octanol/buffer", "setting": "pH 11, urokinase ligand set", "quantity": "logP", "result": 0.83}
{"SMILES": "NS(=O)(=O)c1cc(C(=O)O)c(NCc2ccco2)cc1Cl", "test": "refers to: nervous system disorders", "test system": "healthy men", "setting": "oral, 8 days, treatment-emergent, crossover trial", "quantity": "subjects with adverse event", "result": "0%"}
{"SMILES": "CCOc1c([C@H](C)n2nc(C)c3c(N)ncnc32)cc(Cl)c(F)c1[C@@H]1CNC(=O)C1", "test": "ECG", "test system": "previously treated B-cell malignancy patients", "setting": "oral, 5 mg once daily, baseline QTcF ≤450 ms", "quantity": "observations QTcF >450 ≤480 ms", "result": "0%"}
{"SMILES": "O=C(O)CCC(=O)O.[2H]C([2H])([2H])Oc1cc(C)c2[nH]ccc2c1CN1CC[C@@H](C2CC2)C[C@H]1c1ccc(C(=O)O)cc1", "test system": "healthy Chinese subjects", "setting": "200 mg, single ascending dose", "quantity": "TEAE sinus bradycardia", "result": "16.7%"}
{"SMILES": "OC[C@H]1OC(O)[C@H](O)[C@@H](O)[C@@H]1O (some centres unmarked)", "test system": "aqueous solution", "setting": "25 mM, added: glucosamine", "quantity": "osmolality", "result": "22 mOsmol/kg"}
{"SMILES": "Cn1cc([C@H]2C[C@H]3CSC(N)=N[C@@]3(c3ccc(F)cc3F)CO2)cn1", "test system": "male 129/SVE mouse, CSF", "setting": "subcutaneous, 10 mg/kg, 3 h", "quantity": "CSF concentration", "result": "119 nM"}
{"SMILES": "CNC(=O)c1ccc(-c2cnc3ncc(Cc4ccc5ncccc5c4)n3n2)cc1F", "test system": "Japanese patients", "setting": "oral, 400 mg, any grade", "quantity": "Platelet count decreased dose reduction/interruption", "result": "2%"}
{"SMILES": "O=C(Nc1nc2cccc(-c3ccc(CN4CCS(=O)(=O)CC4)cc3)n2n1)C1CC1", "test": "refers to: gastrointestinal pain", "test system": "human rheumatoid arthritis patients", "setting": "oral, 200 mg once daily, 4 weeks, regardless of relatedness", "quantity": "treatment-emergent adverse events", "result": "0%"}
{"SMILES": "Cc1ccc([C@@H]2O[C@H](CO)[C@@H](O)[C@H](O)[C@H]2O)cc1Cc1ccc(-c2ccc(F)cc2)s1", "test": "refers to: inorganic phosphorus", "test system": "Japanese type 2 diabetes patients", "setting": "100 mg, day 15, 24 h urine collection", "how to read": "reference: baseline", "quantity": "urinary phosphate excretion change", "result": "30.3 mg"}
{"SMILES": "C=CC(=O)N(C)CCOc1c(N)ncnc1-c1cc(F)cc(NC(=O)c2ccc(C3CC3)cc2F)c1C", "test system": "human, plasma", "setting": "oral, 100 mg once daily, day 12", "quantity": "AUC", "result": "485 ng·h/mL"}
{"SMILES": "N#Cc1ccc2c(c1)[C@H]1CCCN(C(=O)c3ccc4[nH]cnc4c3)[C@H]1C2", "test system": "human", "setting": "240 mg, day 15", "how to read": "reference: baseline", "quantity": "ACTH level change", "result": "0.8 pmol/L"}
{"SMILES": "C[C@@H]1CCO[C@H]2Cn3cc(C(=O)NCc4ccc(F)cc4F)c(=O)c(O)c3C(=O)N12", "test system": "Tat- transgenic mouse, striatum", "setting": "subcutaneous osmotic pump, dose not given, 5 d", "quantity": "drug concentration", "result": "4600 ± 1100 ng/g"}
{"SMILES": "O=C1NCCc2nc(OCc3cccc(F)c3)ccc21", "test": "refers to: Tremors", "test system": "Sprague-Dawley rat male", "setting": "oral, 100 mg/kg, 4 h", "how to read": "direction not given", "quantity": "Irwin test score", "result": 0}
{"SMILES": "CO[C@H]1CC[C@H](N2C(=O)CNc3ncc(-c4ccc(C(C)(C)O)nc4)nc32)CC1", "test system": "patients, plasma", "setting": "oral, 15 mg, day -1, median", "quantity": "Tmax", "result": "1.25 h"}
{"SMILES": "O=C1CC[C@H](N2Cc3cc(N4CCN(CC5CCN(c6ccc([C@@H]7c8ccc(O)cc8CC[C@@H]7c7ccccc7)cc6)CC5)CC4)ccc3C2=O)C(=O)N1", "test system": "cryopreserved human hepatocytes", "setting": "1 µM", "quantity": "scaled intrinsic clearance", "result": "46.5 mL/min/kg"}
{"SMILES": "Cc1c(-c2ccc(N3CCc4cccc(C(=O)Nc5nc6ccccc6s5)c4C3)nc2C(=O)O)cnn1CC12CC3(C)CC(C)(C1)CC(OCCNCC[C@H](O)CO)(C3)C2", "test system": "beagle dog, male, anaesthetised", "setting": "intravenous infusion, 0.01 mg/kg/min, 135 min", "how to read": "reference: baseline", "quantity": "mean arterial pressure change", "result": "6 mmHg"}
{"SMILES": "O=C(O)CCCOc1ccc([18F])cc1-c1cc(-c2ccccc2C(F)(F)F)n(-c2ccccc2)n1", "test": "gamma counting", "test system": "male ddY mice, kidney", "setting": "intravenous, 2.1 MBq, 1 min", "quantity": "radioactivity uptake", "result": "3 ± 0.61 SUV"}
{"SMILES": "Cc1nonc1OCCNc1cc(N2CCOCC2)ccc1[N+](=O)[O-]", "test system": "octanol/buffer", "setting": "pH 11, known kinase inactives set", "quantity": "logP", "result": 2.86}
{"SMILES": "Cc1cc(-c2nnc(N)nc2-c2ccc(F)cc2)cc(Cl)n1", "test": "refers to: Hypothyroidism", "test system": "IO-naive colorectal cancer patients", "setting": "oral, dose not given, treatment-related, grade 2", "quantity": "patients with immune-mediated AE", "result": "0%"}
{"note": "For quick reference, copied from above:"}
{"SMILES": "Cc1ccc(Sc2ccccc2N2CCNCC2)c(C)c1", "test": "refers to: Somnolence", "test system": "healthy adult men", "setting": "oral, 5 mg single dose, 10 day", "quantity": "participants with TEAE", "result": "0%"}
{"SMILES": "CNS(=O)(=O)Cc1ccc2[nH]cc(CCN(C)C)c2c1", "test system": "octanol/buffer", "setting": "pH 11, urokinase ligand set", "quantity": "logP", "result": 0.83}
